# Experimental data from different studies.
# Every numbered part comes from another study and shows a few of its results, in no order. Positions count from the first letter of the parent shown.

# Set 1 — technique: RNA Bind-n-Seq; molecule type: RNA; matrix: in vitro; tested at: not given; reference: input RNA pool; reading: higher = stronger binding
# Target: RING finger protein unkempt homolog, zinc fingers 1-6, GST-SBP tag (UNK, Homo sapiens, UniProt Q9C0B0, residues 30-357)
# Setting: RNA with constant flanks, human and mouse sites, ends assumed
# Shared flanks, not repeated: GGGAGUUCUACAGUCCGACGAUC … CAACAGAGGAUUGAGCAUCA
# Construct (chain): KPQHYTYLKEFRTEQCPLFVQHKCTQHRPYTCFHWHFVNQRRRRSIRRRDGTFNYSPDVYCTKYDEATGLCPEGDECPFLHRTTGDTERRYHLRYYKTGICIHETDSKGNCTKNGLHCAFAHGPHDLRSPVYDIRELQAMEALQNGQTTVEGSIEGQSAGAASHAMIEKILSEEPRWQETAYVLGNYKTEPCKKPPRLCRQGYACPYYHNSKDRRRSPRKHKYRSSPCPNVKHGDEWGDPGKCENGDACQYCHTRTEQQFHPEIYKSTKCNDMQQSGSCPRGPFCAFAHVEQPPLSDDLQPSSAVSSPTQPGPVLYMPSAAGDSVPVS
Oligonucleotide,bound/input enrichment
GUUGAUGCAGACUCUCUUGCCGAGGUAGAUGAUGGAAUGGCUUCCCGUCAGGGUUCUCCCAGUAGAACCUUUGGUCUGAGUCUGUCUACGGAUUCUUCGGCAGUAGGGGCUGUUGCUUCU,0.313 ratio
GGAAAUAAAGAAGAUUAUGACCUUUCAAAGAUGAGAGACUUCAUCAAUAAACAAGCUGAUGCUUAUGUGGAGAAAGGCAUCCUUGACAAGGAAGAAGCCGAGGCCAUCAAGCGCAUUUAU,0.085 ratio
UUGUAUUGUUGAUGAUAAGUGUUGACAUUGGGUAGUGUAGAAGCAACAAGCAUGUCCUUGUAGUACAGGUACAGUGAAGGAUAGAACACACUUUCGUUGAUACAAAAAUUUAAAUAGUUA,1.34 ratio
CCAGAGUAUGUCCUGGCCUAUAUUGACUAUCUUUCUCACCUCAAUGAGGACAAUAAUACCCGAGUUUUGUUUGAACGAGUUUUAACAUCUGGAAGCCUUCCUCCUGAGAAGUCUGGAGAA,0.318 ratio
CAUCUACUCUAACUUCAUUUGGAAGGCUUGUCUAGAGUAUAGCAUGUAUUUUUACCUUUGCAGUGAAUUGCAUGUGCUAAUUGUAACCACAGCUAUUUUUAUGUUGACAUAACUCCAAAU,0.254 ratio
UGAUACCGACAGCAAUAGGAUCUUUUGAGUAUUCAACUCGGAGUAACAGAAUUUGUCAUCAACGGCAUGAAUGGCUCAGCCGAGGAAAUAGAGCAGCUUUCAUCUAAAUCCAAGCGUGUC,0.247 ratio
AAACCUGUAGGGUUUGGAGAAGAGUUUGACGAGGAUGAGCUCAUGGCGGAAUUAGAAGAACUAGAACAGGAGGAACUAGACAAGAAUUUGCUGGAAAUCAGUGGACCCGAAACAGUCCCU,1.86 ratio
GAGUUCCCAGAAAAAGAAUACGAGGGUGAAAAGGUUUCUGUCACAACAAGAUUACUAAUUUCGCAUUUAAGUGGAAUUCGUCAUUAUGAAAAGGACAUAAAGAAAGUGAAAGAAGAGAAA,0.303 ratio

# Set 2 — technique: protein-binding microarray; molecule type: double-stranded DNA, one strand shown; matrix: in vitro; tested at: not given; reading: higher = stronger binding
# Target: Transcriptional repressor CTCF (CTCF, Homo sapiens, UniProt P49711, residues 1-727, full length assumed)
# UniProt P49711, sequence (whole entry, looked up): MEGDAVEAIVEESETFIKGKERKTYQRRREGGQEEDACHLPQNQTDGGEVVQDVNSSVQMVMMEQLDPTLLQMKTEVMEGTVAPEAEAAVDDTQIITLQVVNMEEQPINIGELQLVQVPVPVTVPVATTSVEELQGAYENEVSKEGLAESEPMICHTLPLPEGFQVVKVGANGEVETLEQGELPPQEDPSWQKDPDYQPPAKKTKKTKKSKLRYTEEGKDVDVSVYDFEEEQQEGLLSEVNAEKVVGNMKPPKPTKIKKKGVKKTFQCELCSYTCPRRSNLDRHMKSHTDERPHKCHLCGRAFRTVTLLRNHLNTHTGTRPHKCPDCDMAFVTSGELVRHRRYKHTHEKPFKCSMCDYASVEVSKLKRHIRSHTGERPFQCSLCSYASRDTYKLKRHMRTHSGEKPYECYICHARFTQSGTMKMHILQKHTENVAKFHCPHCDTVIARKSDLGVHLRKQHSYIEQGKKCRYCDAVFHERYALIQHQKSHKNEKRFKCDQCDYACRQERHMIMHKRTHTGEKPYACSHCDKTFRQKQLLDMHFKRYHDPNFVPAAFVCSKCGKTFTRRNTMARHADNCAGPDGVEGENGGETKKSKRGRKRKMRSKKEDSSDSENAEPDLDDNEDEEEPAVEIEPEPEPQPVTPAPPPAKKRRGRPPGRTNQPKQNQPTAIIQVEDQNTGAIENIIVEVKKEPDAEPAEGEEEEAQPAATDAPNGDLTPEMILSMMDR
# Setting: k-mer, scored over probes, only values ≥0.25
Oligonucleotide,E-score
GTTTTGTA,0.3
ACACGTAT,0.267
GGCGCGTA,0.334
GATATATA,0.321
CTTCATTA,0.284
ACATAATA,0.363
GCTGATTA,0.342
ACGTTTGA,0.285
ATTTATAC,0.352
ATTAATAA,0.29
AATAACGA,0.274
CTATATAA,0.274
CTTTAATA,0.268
TAAATTTA,0.293
GGCGTATA,0.256
GATGTAAC,0.312
ATTAAAAT,0.307
ATTAAACG,0.285
ACGATAAC,0.319
AAAAGTAC,0.276
AACTTAAC,0.256
AATACATT,0.253

# Set 3 — technique: DHFR PCA, deep sequencing; matrix: yeast; together with: (+)-ABA 0.0091 µM; reference: wild-type fitted maximum; reading: higher = stronger binding
# Target: ABI1, truncated, D143A, DHFR fusion (Arabidopsis thaliana)
# Setting: methotrexate growth selection, single substitutions
# Parent: PYL1, truncated, DHFR fusion (Arabidopsis thaliana); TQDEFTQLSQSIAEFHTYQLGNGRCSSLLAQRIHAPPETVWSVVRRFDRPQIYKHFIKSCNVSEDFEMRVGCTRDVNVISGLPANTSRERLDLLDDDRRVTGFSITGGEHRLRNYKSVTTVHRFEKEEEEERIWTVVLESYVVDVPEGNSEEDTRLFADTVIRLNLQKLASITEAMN
Variant,relative binding score
H34K,40.4%
I79G,1.8%
I79C,35.7%
I57M,-7.51%
H34N,51.5%
S171I,5.36%
F47Q,-4.18%
D48Q,-4.25%
T73Q,13.1%
G108W,-7.09%
K54Q,7.48%
R49K,46.5%
P37T,6.39%
H16F,-2.73%
S63C,30.3%
H55C,24.1%
E129Q,29.7%
H55P,66.5%

# Set 4 — target: CCND1, cyclin fold, Cln2 fusion (human); technique: yeast growth competition, sequencing; matrix: yeast; setting: weak parent motif; reference: not given; reading: higher = stronger binding
# Parent: E2F1 docking peptide (human); PPVKRRLDLETDH
Variant,normalised enrichment score
E10Y,-0.426
R6M,0.495
V3R,0.127
P1M,1.25
P1C,0.142
K4F,0.47
T11K,0.215
R6F,0.0339
L7K,0.267
P1N,0.307
K4G,0.48
R5T,0.0344
V3E,0.242
T11R,-0.0352
P1F,0.922
T11E,0.31
K4V,0.659
P1V,0.311
E10N,0.45
D8E,-0.172
K4N,0.0847
L7I,0.347
P1Y,0.939
R6V,0.253
D12I,0.0873

# Set 5 — technique: protein binding microarray; molecule type: double-stranded DNA, one strand shown; matrix: in vitro; tested at: not given; reference: not given; reading: higher = stronger binding
# Target: Histone acetyltransferase KAT6A, winged helix 1, GST fusion (KAT6A, Homo sapiens, UniProt Q92794, residues 1-85)
# Setting: 8-mer, flanks averaged, mean of 2 arrays, mostly near background
# Construct (chain): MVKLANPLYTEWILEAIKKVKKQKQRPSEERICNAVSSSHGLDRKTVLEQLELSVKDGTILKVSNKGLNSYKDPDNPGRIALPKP
Oligonucleotide,E-score
CACAGGTG,-0.12
CTAACTGA,-0.0819
TAGAAAAA,-0.121
CAAAGGAG,-0.0962
ACGGCCAT,0.267
GCTTAACC,-0.0123
CTAAACCC,-0.0915
GGCATTAC,0.159
AACGCACT,0.138
AAAGCGAT,0.0962
GCATCGTA,0.041
CCTCATGA,-0.157
AGCACGTA,-0.154
AGCTTAAC,-0.144
CGAAAGAC,0.0606
CCCGCCGA,0.439
ATAGTGTG,-0.0302
ACGGAGAA,0.117
GAATCCTA,-0.19
GAGATGGA,-0.261
TGTAACAA,-0.116
AGTGATTC,-0.108
ATCGGTAA,0.0621
CCGTTACA,0.144
AAGATGGC,0.0371

# Excerpt of the above (set 2):
Oligonucleotide,E-score
ACATAATA,0.363
GCTGATTA,0.342
ACGTTTGA,0.285
ATTTATAC,0.352
ATTAATAA,0.29
AATAACGA,0.274
CTATATAA,0.274
CTTTAATA,0.268
TAAATTTA,0.293
GGCGTATA,0.256
GATGTAAC,0.312
ATTAAAAT,0.307
ATTAAACG,0.285
ACGATAAC,0.319
AAAAGTAC,0.276
AACTTAAC,0.256
